Assay results from different studies.
± gives the spread as reported.

SMILES	test	system	setting	how to read	measurement	value
C[C@@H](NC(=O)N1C(=O)[C@H](Cc2ccnc(N)c2)[C@H]1C(=O)O)C1CCCCC1		healthy adult Chinese volunteers	continuous intravenous infusion, 1.5 mg/kg/h, 5-day infusion, CTCAE 5.0 grading		incidence of drug-related AEs	0%
CC1(C)C(=O)N(c2ccc(C#N)c(C(F)(F)F)c2)C(=S)N1c1ccc(C(N)=O)c(F)c1	population PK base model	human			intercompartmental clearance	9.94 L/h
CC(C)(O/N=C(\C(=O)N[C@@H]1C(=O)N2C(C(=O)[O-])=C(C[n+]3ccccc3)CS[C@H]12)c1csc(N)n1)C(=O)O	population PK base model	healthy human, plasma	intravenous, typical value		clearance	118 mL/min
CC(C)Nc1ccnc(Nc2cccc(-c3cccnc3)c2)n1	refers to: Phosphorus	mouse, blood	intraperitoneal, 3 mg/kg		blood chemistry	10.5 mg/dL
CC(C)n1c(C2CCNCC2)nc2c([N+](=O)[O-])c(Br)c(Br)cc21	refers to: Vomiting	AML patients	125 mg		adverse events any grade	24%
COc1ccc(C(C)(C)c2cnc(SCCOc3ccc(-n4ccnc4)cc3)n2-c2ccc(F)cc2)cc1OC	CYP1A2 induction, inducer, refers to: CYP1A2 mRNA	sandwich-cultured human hepatocytes	48 h		EC50	5.3 µM
COc1cc2c(Oc3ccc4[nH]c(C)cc4c3F)ccnc2cc1OCC1(N)CC1		paediatric recurrent refractory sarcoma	8 mg/kg		grade 1 or 2 Headache	20%
COc1ncccc1-c1cnn2ccc(N3CCN(C(=O)OC(C)C)CC3)nc12		mouse nerve ligation model, plasma	oral, 10 mg/kg, 120 min after last dose, repeat dosing day 3		drug concentration	1.7 µM
Cn1c(-c2ccc(C(N)=O)cc2F)nnc1C(C)(C)Oc1c(F)cc(Cl)cc1F		human	oral, 6 mg, single ascending dose		vessel puncture site pain	0%
CC[C@H](C)[C@H](NC(=O)[C@H](Cc1ccccc1)NC(=O)[C@H](CCC(=O)O)NC(=O)[C@H](CCCNC(=N)N)NC(=O)[C@H](C)NC(=O)[C@H](C)NC(=O)[C@H](CCC(N)=O)NC(=O)[C@H](CCC(=O)O)NC(=O)[C@H](CCC(=O)O)NC(=O)[C@H](CC(C)C)NC(=O)[C@H](Cc1ccc(O)cc1)NC(=O)[C@H](CO)NC(=O)[C@H](CO)NC(=O)[C@@H](NC(=O)[C@H](CC(=O)O)NC(=O)[C@H](CO)NC(=O)[C@@H](NC(=O)[C@H](Cc1ccccc1)NC(=O)[C@@H](NC(=O)CNC(=O)[C@H](CCC(=O)O)NC(=O)[C@H](C)NC(=O)CCc1cnc[nH]1)[C@@H](C)O)[C@@H](C)O)C(C)C)C(=O)N[C@@H](C)C(=O)N[C@@H](Cc1c[nH]c2ccccc12)C(=O)N[C@@H](CC(C)C)C(=O)N[C@H](C(=O)N[C@@H](CCCNC(=N)N)C(=O)NCC(=O)N[C@@H](CCCNC(=N)N)C(=O)N[C@@H](CCCCNC(=O)COCCOCCNC(=O)COCCOCCNC(=O)CC[C@H](NC(=O)CCCCCCCCCCCCCCCCC(=O)O)C(=O)O)C(=O)NCC(=O)NCC(=O)N[C@@H](CO)C(=O)N[C@@H](CCCCNC(=O)[C@H](CCCCNc1c(NCCCCCN(O)C(=O)CCC(=O)NCCCCCN(O)C(=O)CCC(=O)NCCCCCN(O)C(C)=O)c(=O)c1=O)Nc1c(NCCCCCN(O)C(=O)CCC(=O)NCCCCCN(O)C(=O)CCC(=O)NCCCCCN(O)C(C)=O)c(=O)c1=O)C(=O)O)C(C)C [zirconium-89 labelled]	ex vivo gamma counting	male Sprague-Dawley rats, liver	intravenous, 1 nmol, 24 h		tissue uptake	1.82 %ID/g
CC[C@H](C)[C@H](NC(=O)[C@H](Cc1c[nH]cn1)NC(=O)[C@H](CO)NC(=O)CNC(=O)[C@H](CCC(=O)O)NC(=O)[C@H](CCSC)NC(=O)[C@@H](NC(=O)[C@H](Cc1c[nH]cn1)NC(=O)[C@H](CO)NC(=O)[C@H](CCSC)NC(=O)[C@H](C)NC(=O)[C@H](CC(N)=O)NC(C)=O)C(C)C)C(=O)N[C@@H](CC(N)=O)C(=O)N[C@@H](Cc1c[nH]c2ccccc12)C(=O)N[C@@H](CC(=O)O)C(=O)N[C@@H](C)C(N)=O	circular dichroism	water with 5% DMSO	500 µM, 18 °C		random coil content	65%
COc1ncnn2ccc(-c3cnc4nc(C)n(Cc5nnc([C@@H](C)F)o5)c4c3)c12		human patients	oral, dose not given		incidence of grade 1 nail discoloration	14.3%
COc1ccc(-c2c(-c3ccc(C#N)c(F)c3)nc(N3CCC(N)CC3)n(C)c2=O)cc1F	refers to: Fatigue/asthenia	neuroendocrine neoplasm patients	oral, 60 mg, any grade, dose expansion		treatment-related adverse event incidence	38%
C[C@]1(CO)Cc2ncn(-c3ccc(C#N)c(Cl)c3)c2C(=O)O1		human	oral, 10 mg, fed, single dose, geometric mean		Cmax	0.335 µM
Cn1ncc(-c2nc(N[C@H]3CC[C@H](N)CC3)ncc2Cl)c1CC1CC1	refers to: hypotension grade 3 or higher	human patients phase I	dose not given		adverse event incidence	13%
C=CCNc1c(O)cc2c(O)c1C[C@@H](C)C[C@H](OC)[C@H](O)[C@@H](C)/C=C(\C)[C@H](OC(N)=O)[C@@H](OC)/C=C\C=C(/C)C(=O)N2		unresectable or metastatic STS, GIST, other	intravenous, 400 mg/m^2		patients with fatigue TEAE	72%
CN1CC[C@@H](c2c(O)cc(O)c3c(=O)cc(-c4ccc(C(F)(F)F)cc4Cl)oc23)[C@@H]1CO	refers to: Anemia	B-cell malignancies	oral, 200 mg, intermittent dosing		patients with adverse event	100%
Clc1ccc(Cl)c(-c2cc(Cl)ccc2Cl)c1		Sprague Dawley rat, liver	intraperitoneal, 100 mg/kg		organ weight	7.22 g
CCN1[C@@H](C(=O)NC23CCC(C(=O)O)(CC2)CC3)[C@H](c2cccc(Cl)c2F)[C@]2(C(=O)Nc3cc(Cl)ccc32)C12CCCCC2		patients with advanced solid tumours	oral, 200 mg		anorexia incidence	50%

SMILES	test	system	setting	how to read	measurement	value
O=S(=O)(Nc1ccccc1)c1ccc(NC(=S)Nc2ccccc2)cc1		mouse, male, lung	oral, 20 mg/kg daily, 14 days	baseline: body weight	relative organ weight	0.87%
COc1ccc2nc3cc(Cl)ccc3c(Nc3cc(CN4CCCC4)c(O)c(CN4CCCC4)c3)c2n1		mouse, blood	intraperitoneal, 14 mg/kg		AST activity	50.7 U/L
CCCCCCCCCCCCCCCC(=O)N[C@@H](CCC(=O)NCCCC[C@H](NC(=O)[C@H](CC(=O)O)NC(=O)[C@H](CO)NC(=O)[C@@H](NC(=O)[C@H](Cc1ccccc1)NC(=O)[C@@H](NC(=O)CNC(=O)[C@H](CCC(N)=O)NC(=O)[C@H](CO)NC(=O)[C@@H](N)Cc1c[nH]cn1)[C@@H](C)O)[C@@H](C)O)C(=O)N[C@@H](CO)C(=O)N[C@@H](CCC(=O)O)C(=O)N[C@@H](Cc1ccc(O)cc1)C(=O)N[C@@H](CC(C)C)C(=O)N[C@@H](CC(=O)O)C(=O)N[C@@H](CO)C(=O)N[C@@H](CCC(=O)O)C(=O)N[C@@H](CCCNC(=N)N)C(=O)N[C@@H](C)C(=O)N[C@@H](CCCNC(=N)N)C(=O)N[C@@H](CC(=O)O)C(=O)N[C@@H](Cc1ccccc1)C(=O)N[C@H](C(=O)N[C@@H](C)C(=O)N[C@@H](Cc1c[nH]c2ccccc12)C(=O)N[C@@H](CC(C)C)C(=O)N[C@@H](CCC(=O)O)C(=O)N[C@@H](C)C(=O)NCC(=O)NCC(=O)O)C(C)C)C(=O)O	refers to: Hyperglycaemia	humans CrCl below 20 mL/min	subcutaneous, 100 µg single dose		treatment-related adverse events	0%
CN1CCN(S(=O)(=O)c2cc([N+](=O)[O-])ccc2N(CCOS(C)(=O)=O)CCOS(C)(=O)=O)CC1		naive NOD/SCID mice, pooled blood	intraperitoneal, 12.5 mg/kg, week 4		glucose	4.1 mmol/L
Clc1ccc(-c2cc(Cl)c(Cl)cc2Cl)cc1Cl		cow whole milk	2000 nM	baseline: milk fat over skim milk	milk fat partition ratio	466
O=C(Nc1ccccc1)C1CCN(C(=O)Oc2cccnc2)CC1	adverse event reporting	healthy women	oral, 100 mg, 9 days		subjects with Overall adverse event	100%
C[C@]1(O)C[C@@](N)(c2ccc(-c3nc4n(c3-c3ccccc3)COc3ccncc3-4)cc2)C1		human, advanced or metastatic solid tumours	dose not given, once-daily dose escalation total		patients with AST increased TEAE	22.2%
O=C(Nc1ccccc1)C1CCN(C(=O)Oc2cccnc2)CC1	refers to: Fatigue	healthy female human	concentration not given, all doses pooled		adverse event incidence	29%
Nc1nc2cc(-c3ccc4ncc(C(=O)N5CCOCC5)n4c3)ccc2o1		human, advanced solid tumours	100–300 mg once daily, drug-related		serious adverse events	8%
CCCCCOc1ccc(-c2ccc(-c3ccc(C(=O)N[C@H]4C[C@@H](O)[C@@H](OCC[N+](C)(C)C)NC(=O)[C@@H]5[C@@H](O)[C@@H](C)CN5C(=O)[C@H]([C@@H](C)O)NC(=O)[C@H]([C@H](O)[C@@H](O)c5ccc(O)cc5)NC(=O)[C@@H]5C[C@@H](O)CN5C(=O)[C@H]([C@@H](C)O)NC4=O)cc3)cc2)cc1		adult ICU patients, mITT, serum	dose not given, Baseline		alkaline phosphatase	131 U/L
CC(=O)c1c(C)c2cnc(Nc3ccc(C4CCN(CCS(C)(=O)=O)CC4)cn3)nc2n(C2CCCC2)c1=O		human, plasma	oral, 75 mg twice daily, day 21, multiple doses, with: letrozole		Cmax	0.191 µg/mL
CC(C)C[C@H](NC(=O)[C@H](CCCCN)NC(=O)OCC1c2ccccc2-c2ccccc21)C(=O)N[C@H](C(=O)N[C@@H](Cc1ccccc1)C(=O)N[C@@H](Cc1ccccc1)C(=O)N[C@@H](CCCCN)C(=O)NCC(=O)N[C@@H](Cc1ccccc1)C(=O)N[C@@H](C)C(=O)N[C@@H](Cc1c[nH]c2ccccc12)C(=O)N[C@@H](CC(N)=O)C(=O)N[C@H](C(=O)N[C@H]1CSSC[C@@H](C(=O)N[C@@H](Cc2c[nH]cn2)C(=O)N[C@@H](CCCNC(=N)N)C(=O)N[C@@H](CCCNC(=N)N)C(=O)N[C@@H](C)C(=O)N[C@@H](CC(N)=O)C(N)=O)NC(=O)[C@H](C(C)C)NC(=O)[C@H](CCCNC(=N)N)NC(=O)[C@H](C(C)C)NC(=O)CNC(=O)[C@H](CC(N)=O)NC(=O)[C@H](CCCNC(=N)N)NC(=O)[C@H](Cc2ccc(O)cc2)NC(=O)[C@H](C(C)C)NC1=O)C(C)C)C(C)C		ICR mouse	ip, 5 mg/kg	direction not given	group interaction score	0
COC[C@]12CN(C)[C@@H]3[C@@H]4[C@H](OC)[C@H]1[C@@]3([C@@H](OC)C[C@H]2O)[C@@H]1C[C@@]2(O)[C@H](OC(=O)c3ccccc3)[C@@H]1[C@]4(OC(C)=O)[C@@H](O)[C@@H]2OC		Sprague-Dawley rat, plasma	oral, dose not given, in PCW extract		MRT(0-t)	2.65 ± 0.921 h
CO[C@H]1C[C@@H]2CC[C@@H](C)[C@@](O)(O2)C(=O)C(=O)N2CCCC[C@H]2C(=O)O[C@H]([C@H](C)C[C@@H]2CC[C@@H](OC(=O)NCCOCCOCCOCCOCCOCCOCCOCCOCCC(=O)N3CCc4cc(Cn5nc(-c6ccc7oc(N)nc7c6)c6c(N)ncnc65)ccc4C3)[C@H](OC)C2)C[C@@H](O)[C@H](C)/C=C(\C)[C@@H](O)[C@@H](OC)C(=O)[C@H](C)C[C@H](C)/C=C/C=C/C=C/1C		patients with advanced solid tumours	intravenous, dose not given, any grade		incidence of Anemia TEAE	26.3%
CCc1ccc(CC/C=C/c2ccc3c(c2)C(=O)CC3)cc1		Sprague-Dawley rat, male, serum	oral, 450 mg/kg/day, 14 days		potassium	4.78 mM
NC(=O)[C@H]1CCN(c2ncnc(N)c2F)C[C@@H]1N1CCC[C@@H](Nc2cc(Cl)cc(C(F)(F)F)c2)C1=O		B-cell malignancy patients	oral, 410 mg twice daily, dose		grade ≥3 hypocalcaemia	0%
CN1CCN(C2=Nc3ccccc3Nc3ccccc32)CC1		male C57BL/6 mice	intraperitoneal, 10 mg/kg, 30 min		brain to plasma ratio	10.4
CC(C)CC(=O)OC[C@H]1O[C@@](C#N)(c2ccc3c(N)ncnn23)[C@H](O)[C@@H]1O	plasma protein binding	rat plasma	90 µM		bound fraction	0.893
O=C(O)CCCOc1ccc(F)cc1-c1cc(-c2ccccc2C(F)(F)F)n(-c2ccccc2)n1	refers to: α2-glb	Crl:CD(SD) rats, female, serum	iv, 25 µg/kg, 14 days		serum protein fraction	8.4 ± 0.8%
